Published values gathered from unrelated publications.
Each line is one published result; not all experiments were run side by side.
Effect on: enzyme activity
Mode: inhibitor
CTSL: Procathepsin L (CTSL, Homo sapiens, UniProt P07711)
Sequence of UniProt P07711 (whole entry, looked up): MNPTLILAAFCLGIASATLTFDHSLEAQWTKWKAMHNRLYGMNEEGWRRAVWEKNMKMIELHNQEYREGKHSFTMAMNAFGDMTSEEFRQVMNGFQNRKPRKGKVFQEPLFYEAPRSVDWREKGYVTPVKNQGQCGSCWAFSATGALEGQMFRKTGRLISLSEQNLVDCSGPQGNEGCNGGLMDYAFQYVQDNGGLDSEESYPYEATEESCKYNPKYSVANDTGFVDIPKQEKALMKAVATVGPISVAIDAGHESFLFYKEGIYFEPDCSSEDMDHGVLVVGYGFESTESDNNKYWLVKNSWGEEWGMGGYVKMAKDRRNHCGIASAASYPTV
Sequence of UniProt P49841 (whole entry, looked up): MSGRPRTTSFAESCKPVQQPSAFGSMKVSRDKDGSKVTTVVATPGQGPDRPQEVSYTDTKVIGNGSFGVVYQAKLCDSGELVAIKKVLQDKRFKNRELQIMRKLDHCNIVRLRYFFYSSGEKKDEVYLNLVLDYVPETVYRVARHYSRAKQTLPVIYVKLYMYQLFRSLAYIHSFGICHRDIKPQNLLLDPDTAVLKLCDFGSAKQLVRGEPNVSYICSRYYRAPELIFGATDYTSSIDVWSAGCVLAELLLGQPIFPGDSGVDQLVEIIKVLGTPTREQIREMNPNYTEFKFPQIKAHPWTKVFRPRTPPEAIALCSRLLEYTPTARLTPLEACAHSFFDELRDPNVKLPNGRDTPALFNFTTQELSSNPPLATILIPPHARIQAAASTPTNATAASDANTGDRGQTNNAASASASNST
Sequence of UniProt Q8IU80 (whole entry, looked up): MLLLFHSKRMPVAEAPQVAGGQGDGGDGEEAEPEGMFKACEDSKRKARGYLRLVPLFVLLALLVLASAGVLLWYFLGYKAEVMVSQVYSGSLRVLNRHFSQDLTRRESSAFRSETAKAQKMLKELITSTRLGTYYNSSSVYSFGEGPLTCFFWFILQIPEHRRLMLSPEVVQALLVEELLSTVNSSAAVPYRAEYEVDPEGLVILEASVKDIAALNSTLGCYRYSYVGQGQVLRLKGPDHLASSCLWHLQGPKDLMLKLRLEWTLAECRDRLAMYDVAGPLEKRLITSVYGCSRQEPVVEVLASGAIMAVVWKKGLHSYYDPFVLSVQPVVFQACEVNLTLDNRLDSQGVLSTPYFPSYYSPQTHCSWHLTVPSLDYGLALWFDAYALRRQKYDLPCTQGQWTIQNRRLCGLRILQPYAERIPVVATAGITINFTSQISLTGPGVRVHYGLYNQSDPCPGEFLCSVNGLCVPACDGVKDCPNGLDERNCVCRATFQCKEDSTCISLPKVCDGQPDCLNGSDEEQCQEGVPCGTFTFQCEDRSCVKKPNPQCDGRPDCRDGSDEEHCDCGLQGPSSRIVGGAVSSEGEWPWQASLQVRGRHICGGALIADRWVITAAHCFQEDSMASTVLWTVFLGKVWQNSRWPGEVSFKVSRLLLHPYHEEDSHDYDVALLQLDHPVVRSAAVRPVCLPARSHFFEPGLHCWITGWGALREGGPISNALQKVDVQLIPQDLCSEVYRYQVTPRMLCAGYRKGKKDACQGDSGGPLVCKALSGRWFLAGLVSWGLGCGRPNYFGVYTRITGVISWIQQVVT
Sequence of UniProt P05164 (whole entry, looked up): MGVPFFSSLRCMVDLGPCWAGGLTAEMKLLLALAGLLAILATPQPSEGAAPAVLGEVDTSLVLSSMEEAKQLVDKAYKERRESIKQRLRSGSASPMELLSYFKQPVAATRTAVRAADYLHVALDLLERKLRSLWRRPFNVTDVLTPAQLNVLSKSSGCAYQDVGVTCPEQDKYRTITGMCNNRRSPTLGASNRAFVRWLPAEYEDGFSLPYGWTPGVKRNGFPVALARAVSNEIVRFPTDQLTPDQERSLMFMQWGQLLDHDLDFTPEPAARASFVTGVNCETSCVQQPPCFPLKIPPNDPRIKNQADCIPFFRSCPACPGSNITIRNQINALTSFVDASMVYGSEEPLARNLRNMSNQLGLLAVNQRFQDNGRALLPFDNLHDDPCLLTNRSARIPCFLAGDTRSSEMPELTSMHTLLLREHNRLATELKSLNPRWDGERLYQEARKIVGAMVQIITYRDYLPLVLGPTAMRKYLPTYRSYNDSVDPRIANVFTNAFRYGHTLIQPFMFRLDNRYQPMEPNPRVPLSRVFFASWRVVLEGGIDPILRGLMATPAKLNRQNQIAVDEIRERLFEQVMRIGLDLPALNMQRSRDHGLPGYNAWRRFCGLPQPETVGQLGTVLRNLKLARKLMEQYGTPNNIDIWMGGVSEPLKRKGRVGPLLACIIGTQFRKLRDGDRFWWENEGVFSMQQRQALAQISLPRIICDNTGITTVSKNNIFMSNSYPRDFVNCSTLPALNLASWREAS
Sequence of UniProt O94768 (whole entry, looked up): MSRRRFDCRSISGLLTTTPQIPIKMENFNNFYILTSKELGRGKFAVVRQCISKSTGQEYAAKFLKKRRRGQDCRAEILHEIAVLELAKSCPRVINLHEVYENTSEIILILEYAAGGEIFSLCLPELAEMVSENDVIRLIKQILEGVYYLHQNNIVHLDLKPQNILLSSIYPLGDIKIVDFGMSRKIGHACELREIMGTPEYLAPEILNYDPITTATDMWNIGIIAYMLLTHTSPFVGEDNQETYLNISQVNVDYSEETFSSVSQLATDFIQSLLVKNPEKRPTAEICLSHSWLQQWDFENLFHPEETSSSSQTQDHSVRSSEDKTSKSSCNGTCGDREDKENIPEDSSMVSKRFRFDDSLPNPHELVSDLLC
Sequence of UniProt Q00535 (whole entry, looked up): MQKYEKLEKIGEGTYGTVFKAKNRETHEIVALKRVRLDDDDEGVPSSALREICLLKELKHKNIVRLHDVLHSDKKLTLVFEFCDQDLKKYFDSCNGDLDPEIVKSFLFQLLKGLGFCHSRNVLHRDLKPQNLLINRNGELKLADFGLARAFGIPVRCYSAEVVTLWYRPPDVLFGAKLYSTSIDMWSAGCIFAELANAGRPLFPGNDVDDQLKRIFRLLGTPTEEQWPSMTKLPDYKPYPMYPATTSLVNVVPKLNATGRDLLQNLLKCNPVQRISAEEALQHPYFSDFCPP
Sequence of UniProt P42685 (whole entry, looked up): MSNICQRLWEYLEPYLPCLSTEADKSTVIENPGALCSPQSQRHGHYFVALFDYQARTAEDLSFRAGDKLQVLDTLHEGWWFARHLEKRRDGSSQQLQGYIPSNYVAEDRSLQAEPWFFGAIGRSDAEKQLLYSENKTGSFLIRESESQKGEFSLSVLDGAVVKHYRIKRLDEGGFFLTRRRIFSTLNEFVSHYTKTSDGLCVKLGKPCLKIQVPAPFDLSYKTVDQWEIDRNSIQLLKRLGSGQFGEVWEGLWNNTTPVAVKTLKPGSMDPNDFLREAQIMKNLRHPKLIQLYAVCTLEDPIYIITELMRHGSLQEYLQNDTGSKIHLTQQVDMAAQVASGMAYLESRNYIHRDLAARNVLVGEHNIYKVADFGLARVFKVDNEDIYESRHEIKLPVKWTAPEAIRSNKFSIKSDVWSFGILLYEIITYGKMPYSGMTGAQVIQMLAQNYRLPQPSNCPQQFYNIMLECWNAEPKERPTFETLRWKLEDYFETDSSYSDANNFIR
Sequence of UniProt P52333 (whole entry, looked up): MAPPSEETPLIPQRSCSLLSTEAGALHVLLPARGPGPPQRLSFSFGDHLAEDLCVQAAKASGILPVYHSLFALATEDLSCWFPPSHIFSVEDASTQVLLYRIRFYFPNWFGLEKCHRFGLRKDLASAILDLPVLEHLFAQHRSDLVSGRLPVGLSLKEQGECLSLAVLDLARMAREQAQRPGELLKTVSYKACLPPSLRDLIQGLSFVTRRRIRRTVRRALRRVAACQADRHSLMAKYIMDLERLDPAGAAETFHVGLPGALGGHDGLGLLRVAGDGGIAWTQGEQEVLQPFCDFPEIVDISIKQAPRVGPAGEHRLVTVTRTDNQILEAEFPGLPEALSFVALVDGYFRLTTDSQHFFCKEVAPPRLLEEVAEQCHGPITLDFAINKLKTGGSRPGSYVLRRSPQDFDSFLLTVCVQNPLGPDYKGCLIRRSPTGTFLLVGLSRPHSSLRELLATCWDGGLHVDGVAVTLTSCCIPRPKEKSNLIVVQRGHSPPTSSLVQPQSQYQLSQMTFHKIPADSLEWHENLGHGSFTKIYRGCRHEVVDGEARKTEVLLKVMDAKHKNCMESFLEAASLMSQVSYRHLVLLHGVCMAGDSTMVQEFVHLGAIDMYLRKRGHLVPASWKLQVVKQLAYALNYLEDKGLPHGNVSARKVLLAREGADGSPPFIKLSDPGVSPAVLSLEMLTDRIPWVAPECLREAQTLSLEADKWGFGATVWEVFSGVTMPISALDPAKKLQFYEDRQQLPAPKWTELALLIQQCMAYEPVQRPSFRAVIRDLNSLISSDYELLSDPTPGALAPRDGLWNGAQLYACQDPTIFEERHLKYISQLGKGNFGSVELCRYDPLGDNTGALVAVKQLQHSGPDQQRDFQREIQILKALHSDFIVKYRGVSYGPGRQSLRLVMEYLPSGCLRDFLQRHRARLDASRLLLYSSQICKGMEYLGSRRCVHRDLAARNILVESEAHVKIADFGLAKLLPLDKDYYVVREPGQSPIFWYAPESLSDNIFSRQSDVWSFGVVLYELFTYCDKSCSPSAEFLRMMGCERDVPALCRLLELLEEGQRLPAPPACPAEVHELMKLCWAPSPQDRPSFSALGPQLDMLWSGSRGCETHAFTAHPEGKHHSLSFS

Compound	target	assay	conditions	remaining activity [%]
COc1cc(O)cc(O)c1C(=O)C=Cc1ccccc1	CTSL		100 µM	14.8
CC[C@H](C)[C@H](NC(=O)[C@H](Cc1cscn1)NC(=O)CCc1ccccc1)C(=O)N[C@@H](CCCNC(=N)N)C(=O)c1nc2ccccc2s1	Transmembrane protease serine 6 (Homo sapiens, UniProt Q8IU80)		0.1 µM	2
CNc1ncc2c(/C=C/C(=O)N3CCC(OC)CC3)nn(Cc3cccc(C(F)(F)F)c3)c2n1	Tyrosine-protein kinase FRK (FRK, Homo sapiens, UniProt P42685)	radiometric	1 µM	75
COc1cc(-c2cncc3c2CN(C)Cc2cc(N4CCNCC4)ccc2-3)cc(OC)c1OC	Tyrosine-protein kinase JAK3 (JAK3, Homo sapiens, UniProt P52333)		1 µM	105
CC(C)=CCC/C(C)=C/CC/C(C)=C/CC/C(C)=C/CC/C(C)=C/CC/C(C)=C/CC/C(C)=C/CC/C(C)=C/CC/C(C)=C/CO	CTSL		100 µM	137
CC[C@H](C)[C@H](NC(=O)[C@H](CCC(N)=O)NC(=O)[C@H](CC(C)C)NC(=O)[C@H](CCSC)NC(=O)[C@H](CCCCN)NC(=O)[C@H](CO)NC(=O)[C@H](CO)NC(=O)[C@H](CCSC)NC(=O)[C@H](CC(C)C)NC(=O)[C@H](CC(N)=O)NC(=O)[C@@H](NC(=O)[C@@H](NC(=O)[C@H](CO)NC(=O)[C@H](CC(C)C)NC(=O)[C@H](CS)NC(=O)[C@H](CCCNC(=N)N)NC(=O)[C@H](CC(=O)O)NC(=O)[C@H](Cc1c[nH]c2ccccc12)NC(=O)[C@H](Cc1ccccc1)NC(=O)[C@H](C)NC(=O)[C@H](CCC(=O)O)NC(=O)[C@@H](N)CCCCN)C(C)C)[C@@H](C)CC)C(=O)N[C@@H](CC(N)=O)C(=O)N[C@@H](C)C(=O)O	Cyclin-dependent kinase 5, with p35 (CDK5, Homo sapiens, UniProt Q00535)	radiometric	10 µM, 20 min	98
NC/C(=C\F)COc1cccc(Cn2c(=S)[nH]c(=O)c3[nH]cnc32)c1	Myeloperoxidase (MPO, Homo sapiens, UniProt P05164)		83 nM	50.4
COc1ccc2[nH]c3ccccc3c2c1	CTSL		100 µM	108
CC[C@H](C)[C@H](NC(=O)[C@H](CCC(N)=O)NC(=O)[C@@H](NC(=O)[C@H](CCSC)NC(=O)[C@H](CCCCN)NC(=O)[C@H](CO)NC(=O)[C@@H](NC(=O)[C@H](CCSC)NC(=O)[C@H](CC(C)C)NC(=O)[C@H](CC(N)=O)NC(=O)[C@@H](NC(=O)[C@@H](NC(=O)[C@H](CO)NC(=O)[C@H](CC(C)C)NC(=O)[C@H](C)NC(=O)[C@H](CCCNC(=N)N)NC(=O)[C@H](CCC(=O)O)NC(=O)[C@H](Cc1ccc(O)cc1)NC(=O)[C@H](Cc1ccccc1)NC(=O)[C@H](C)NC(=O)[C@H](CC(N)=O)NC(=O)[C@@H](N)CCCCN)[C@@H](C)CC)[C@@H](C)CC)[C@@H](C)O)C(C)C)C(=O)N[C@@H](CC(N)=O)C(=O)N[C@H](C(=O)O)C(C)C	Glycogen synthase kinase-3 beta (GSK3B, Homo sapiens, UniProt P49841)	radiometric	1 µM, 20 min	99
NS(=O)(=O)c1ccc(CNc2nc(Nc3cccc(CN4CCOCC4)c3)ncc2Br)cc1	Serine/threonine-protein kinase 17B (STK17B, Homo sapiens, UniProt O94768)	radiometric	1 µM	39

A few entries again:
Compound	target	assay	conditions	remaining activity [%]
CC[C@H](C)[C@H](NC(=O)[C@H](CCC(N)=O)NC(=O)[C@@H](NC(=O)[C@H](CCSC)NC(=O)[C@H](CCCCN)NC(=O)[C@H](CO)NC(=O)[C@@H](NC(=O)[C@H](CCSC)NC(=O)[C@H](CC(C)C)NC(=O)[C@H](CC(N)=O)NC(=O)[C@@H](NC(=O)[C@@H](NC(=O)[C@H](CO)NC(=O)[C@H](CC(C)C)NC(=O)[C@H](C)NC(=O)[C@H](CCCNC(=N)N)NC(=O)[C@H](CCC(=O)O)NC(=O)[C@H](Cc1ccc(O)cc1)NC(=O)[C@H](Cc1ccccc1)NC(=O)[C@H](C)NC(=O)[C@H](CC(N)=O)NC(=O)[C@@H](N)CCCCN)[C@@H](C)CC)[C@@H](C)CC)[C@@H](C)O)C(C)C)C(=O)N[C@@H](CC(N)=O)C(=O)N[C@H](C(=O)O)C(C)C	Glycogen synthase kinase-3 beta (GSK3B, Homo sapiens, UniProt P49841)	radiometric	1 µM, 20 min	99
NC/C(=C\F)COc1cccc(Cn2c(=S)[nH]c(=O)c3[nH]cnc32)c1	Myeloperoxidase (MPO, Homo sapiens, UniProt P05164)		83 nM	50.4
